Measured values gathered from unrelated publications.
Each numbered part is a random draw from the data of one study; scales do not carry over between parts. Substitutions count along the parent as printed.

Study 1
Target: JUN, bZIP domain (human)
Method: DHFR protein complementation
Matrix: yeast
Setting: single substitutions, most at no-binding floor
Baseline: wild-type JUN-FOS pair
Reading: higher = stronger binding
Starting sequence: JUN, bZIP domain (human); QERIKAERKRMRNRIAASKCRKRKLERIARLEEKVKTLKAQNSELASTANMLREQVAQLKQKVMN
Change | binding fitness [natural log]
R53P | -1.29
A49P | -1.35
L52K | -1.42
T37P | -1.41
L31F | -1.3
L52D | -1.37
L59G | -1.29
L45N | -1.3

Study 2
Target: Ras GTPase-activating protein-binding protein 1, RRM domain (G3BP1, Homo sapiens, UniProt Q13283)
UniProt Q13283, sequence (whole entry, looked up): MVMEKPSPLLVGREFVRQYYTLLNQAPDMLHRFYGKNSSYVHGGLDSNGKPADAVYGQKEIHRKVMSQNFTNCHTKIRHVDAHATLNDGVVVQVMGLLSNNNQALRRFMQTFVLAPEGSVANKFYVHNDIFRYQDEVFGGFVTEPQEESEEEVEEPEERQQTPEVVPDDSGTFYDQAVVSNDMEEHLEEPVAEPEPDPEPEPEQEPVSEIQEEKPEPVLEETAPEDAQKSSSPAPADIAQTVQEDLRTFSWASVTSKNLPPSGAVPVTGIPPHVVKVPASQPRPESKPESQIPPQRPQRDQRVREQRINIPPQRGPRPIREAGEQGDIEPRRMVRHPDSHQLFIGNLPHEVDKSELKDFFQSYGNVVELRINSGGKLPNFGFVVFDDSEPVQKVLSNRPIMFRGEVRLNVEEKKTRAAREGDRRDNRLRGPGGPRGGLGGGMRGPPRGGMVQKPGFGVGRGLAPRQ
Method: RNA Bind-n-Seq
Form: RNA
Matrix: in vitro
Concentration: 1 µM
Setting: whole 134-nt RNA, ends assumed
Added: 150 mM KCl
Baseline: input library
Reading: higher = stronger binding
Constant ends, left off below: GGGAGUUCUACAGUCCGACGAUC … UGGAAUUCUCGGGUGUCAAGG
Strand | log2 enrichment
CUCAAGUCCUGUGCUACACAUCGUAUGUACCGAAUCGGGGAAGGGAAGGAAGGAAAGUAUUAUGUUACGCCGUUCGGAUCUGCACUUCCA | -0.387
UUGACAUGAAGACAAUGGAGACUGCAGAGAAACUGGCUAGAUUUGUUGCUCAGGUGGGACCAGAGAUCGAACAAUUCAGCAUAGAAAACA | -0.0252
AUUAAGGUCACCGUUGCAGGCCUGGCUGGAAAAGACCCAGUACAGUGUAGCCGUGAUGUGGUCAUUUGUCCUGAUGCCAGCCUUGAAGAU | -0.275
CACAGACGACACGCACCCACACAGACACAGAGGGAAGGGGUUGGGAUGGGGACAGGGUGCACAGCAGGGCGGGGUAGGACCCCAGCCCCU | -0.0133
AAGUCCUGUGCUACACAUCGUAUGUACCGAAUCAAACCCAAACCCAAACCCCCAAAAAAGUAUUAUGUUACGCCGUUCGGAUCUGCACUU | -0.123
GCAGGAAGUAACAACAAAUGGAAAUGCUUCGGAUAGUGGCAGGGGUGGGGGUUGCUAAGGAAAGGGUGGGAUGGGAGUGGGUAAAGAGUU | 1.39
GCAGGAAGUAAAAACAAAUGGAAAUGCUUCGGAUAUUGGCAGGGGUGGGGGUUGCUAAGGAAAGGGUGGGAUGGGAGUGGGUAAAGAGUU | 1.06
CAAGUCCUGUGCUACACAUCGUAUGUACCGAAUCGGUUUGGGGUUUGGGGUUUGGAAAGUAUUAUGUUACGCCGUUCGGAUCUGCACUUC | -0.402

Study 3
Target: Prothrombin, mature alpha-thrombin (F2, Homo sapiens, UniProt P00734)
Method: aptamer microarray, sandwich
Form: DNA with 2'F-ANA
Matrix: in vitro
Concentration: 200 nM
Setting: whole 15-mer aptamer, many near background
Added: Cy3 exosite-II aptamer, 400 nM
Reading: higher = stronger binding
Strand: GGTTGGTGTGGTTGG
Modification | mean fluorescence intensity [a.u.]
2'F-ANA at 1 2 3 4 5 6 7 11 13 14 | 51
2'F-ANA at 5 6 10 11 13 14 15 | 66.2
2'F-ANA at 4 5 6 9 10 12 15 | 48.9
2'F-ANA at 4 8 10 15 | 81
2'F-ANA at 1 2 3 5 8 13 14 | 46.3
2'F-ANA at 2 3 4 8 11 | 702
2'F-ANA at 3 5 6 9 13 | 71.8
2'F-ANA at 2 3 4 5 6 7 8 11 12 13 14 | 53.4

Mixed results
Compound | system | setting | endpoint | result
COc1c(C(C)(C)C)cc(C(=O)COc2ccc(O)cc2)c(O)c1I | human, microsomes or S9 | 2 µM, 0.5 h | remaining compound | > 99%
